Published values collected from several papers.
Each numbered part is a random draw from the data of one study; scales do not carry over between parts. Substitutions count along the parent as printed.

Block 1
Target: Centromere-binding protein 1, full length, N-terminal tag (CBF1, Saccharomyces cerevisiae, UniProt P17106, residues 1-351)
Chain of UniProt P17106 (whole entry, looked up): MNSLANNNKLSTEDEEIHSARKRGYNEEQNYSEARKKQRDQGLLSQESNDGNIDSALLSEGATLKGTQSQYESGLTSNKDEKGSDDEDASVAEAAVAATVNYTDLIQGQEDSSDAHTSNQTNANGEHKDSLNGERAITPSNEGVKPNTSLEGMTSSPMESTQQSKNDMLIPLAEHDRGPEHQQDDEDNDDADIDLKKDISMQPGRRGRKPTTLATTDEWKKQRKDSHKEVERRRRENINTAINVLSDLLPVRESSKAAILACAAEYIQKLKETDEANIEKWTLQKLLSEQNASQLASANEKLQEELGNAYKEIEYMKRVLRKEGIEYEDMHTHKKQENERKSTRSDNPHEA
Technique: protein-binding microarray
Molecule type: double-stranded DNA, one strand shown
Medium: in vitro
Concentration: 0.8 µM
Setting: whole 60-bp probe, no competitor
Direction: higher = stronger binding
Sequence | fluorescence intensity [a.u.]
GAAAAACCTTTCCCTCATGATCTCCTAATTTGATAGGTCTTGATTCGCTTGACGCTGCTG | 564
CTAGCGGAAGAGAAGCACGAGACACGGGTCACTTTCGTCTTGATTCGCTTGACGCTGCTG | 1070
GAATGTACTCGGAGCCACGATCCATCTGGATAATAGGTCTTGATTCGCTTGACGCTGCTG | 510
CTATGGCAAGATGTACACGGGGAGCTCCTTCAATTCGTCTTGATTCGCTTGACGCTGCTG | 490
CTAGCGCTTTATGTTCATATGATACCGTTTATATTCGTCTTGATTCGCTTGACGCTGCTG | 561
CTAATAGATTTTTAGTACGTGCCTTTTATTTTATTCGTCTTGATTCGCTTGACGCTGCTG | 548
GAAATAATACAGATTTGTGACGTATAAAGAAACTAGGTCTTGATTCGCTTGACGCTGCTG | 552
CTAAAGCCTATTTCTCACGTTTTCCGGCACTTATTCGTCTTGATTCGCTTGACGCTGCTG | 555
CTATTTATAATTTTTCACCTGTTTCTTTTTGAATTCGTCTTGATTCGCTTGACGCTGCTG | 541
CTATTGTGTACAGACACGTGCATTTTTGGTACGTTCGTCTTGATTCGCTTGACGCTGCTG | 6130
CTACCTATGTAGAGCCTCGTCACCATACCTATATTCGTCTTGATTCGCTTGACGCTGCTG | 623
CTATATTAACCTCACAACGTGATAGAAACCTTGTTCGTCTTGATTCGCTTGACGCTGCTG | 1150
TGTACGAAGCTATCTAGCGTGCGTATAGTAGTTAGGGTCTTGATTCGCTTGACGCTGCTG | 523
GAATTGGCCTTCTTTCGTGCGCTTTCCTAAAGGTAGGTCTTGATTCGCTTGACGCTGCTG | 495
CTAAAGCAAGGCAGCATCAGAACGTACCGTCAGTTCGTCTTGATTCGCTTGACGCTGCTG | 478
GAAAAGGTGTCACGTGATCAGATGGTCTTTTTTTAGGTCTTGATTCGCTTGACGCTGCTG | 43300
CTAACCACATAATCACACGTGATAAATAGTCCCTTCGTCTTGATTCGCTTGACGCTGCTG | 5260
CTAACTACTAATAATCACGTGATATTTCTTTTCTTCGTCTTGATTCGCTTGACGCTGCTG | 33600
CTAGTATTTGAAATGCATGTGATTTACAATCCTTTCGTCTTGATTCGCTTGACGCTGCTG | 2350
CTATAAGCGATTAGCCACACCACCCACTGTACGTTCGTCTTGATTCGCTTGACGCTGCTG | 574
GAAAGCCACCGTAAGCACGATGGTTTTATCCTCTAGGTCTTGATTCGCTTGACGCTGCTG | 454
CCTAACTACTATAGCCATCACTAATAGCTTCGTACAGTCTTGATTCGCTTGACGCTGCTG | 497
CTATCGTAACCTCGTTCCATGTGACATTCTTTTTTCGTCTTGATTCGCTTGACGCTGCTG | 2500
GAAGTCGCCCAGTGTCATGTGCTTATCCCTTGATAGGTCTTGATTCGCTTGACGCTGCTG | 1520

Block 2
Target: POU domain, class 5, transcription factor 1, POU domain (Pou5f1, Mus musculus, UniProt P20263, residues 131-289)
Chain of UniProt P20263 (131-289, looked up): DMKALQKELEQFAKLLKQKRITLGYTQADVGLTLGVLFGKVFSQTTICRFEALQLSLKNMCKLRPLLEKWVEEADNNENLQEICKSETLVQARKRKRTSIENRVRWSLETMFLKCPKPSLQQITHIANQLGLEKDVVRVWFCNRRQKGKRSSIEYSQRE
Technique: Spec-seq
Molecule type: double-stranded DNA, one strand shown
Medium: in vitro
Concentration: not given
Setting: whole probe, mean of replicates
Relative to: not given
Direction: lower = stronger binding
Shared flanks, not repeated: GAGTCGTCTCGTCAGCAC … CCGTAGAGCACTCAGGTC
Sequence | relative binding energy
AGGTTAAT | 0.641 ln ratio
GCAGTAAT | 0.728 ln ratio
ATGCCCGT | 0.796 ln ratio
ATGCGTCA | 0.296 ln ratio
AACTTAAT | 0.364 ln ratio
ATCACTAT | 0.379 ln ratio
CGAATAAT | -0.632 ln ratio
ATTCTTAT | 0.327 ln ratio
GCTGTAAT | 0.82 ln ratio
GAAATAAT | 0.0822 ln ratio
ATATTAAT | -0.381 ln ratio
TCCGTAAT | 0.828 ln ratio
ATGCGTAA | -0.36 ln ratio
AAGCTAAT | 0.272 ln ratio
ATTACAAT | -0.429 ln ratio
CATTTAAT | 0.452 ln ratio

Block 3
Target: Ras GTPase-activating protein-binding protein 1, full length (G3BP1, Homo sapiens, UniProt Q13283)
Chain of UniProt Q13283 (whole entry, looked up): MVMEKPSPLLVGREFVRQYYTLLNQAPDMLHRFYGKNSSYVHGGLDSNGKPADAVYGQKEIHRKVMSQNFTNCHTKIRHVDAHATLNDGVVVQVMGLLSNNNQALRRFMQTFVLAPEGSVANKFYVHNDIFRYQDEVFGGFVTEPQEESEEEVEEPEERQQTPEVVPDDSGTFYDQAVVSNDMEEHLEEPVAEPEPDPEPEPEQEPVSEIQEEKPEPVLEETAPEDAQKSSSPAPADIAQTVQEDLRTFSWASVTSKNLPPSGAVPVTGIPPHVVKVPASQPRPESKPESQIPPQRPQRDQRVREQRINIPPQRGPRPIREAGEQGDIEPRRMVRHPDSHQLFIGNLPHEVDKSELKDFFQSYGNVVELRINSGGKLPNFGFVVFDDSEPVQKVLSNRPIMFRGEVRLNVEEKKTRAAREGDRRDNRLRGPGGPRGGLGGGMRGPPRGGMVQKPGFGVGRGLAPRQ
Technique: RNA Bind-n-Seq
Molecule type: RNA
Medium: in vitro
Concentration: 200 nM
Setting: whole 134-nt RNA, ends assumed
Together with: 150 mM LiCl
Relative to: input library
Direction: higher = stronger binding
Each molecule: 7-deaza-guanosine replaces G
Sequence | log2 enrichment
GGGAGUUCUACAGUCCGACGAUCCCUGUGCUACACAUCGUAUGUACCGAAUCGGGGUUUUUGGGGAAAGGGGUUUUUUUGGGGAAAGUAUUAUGUUACGCCGUUCGGAUCUGCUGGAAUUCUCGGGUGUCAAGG | 0.536
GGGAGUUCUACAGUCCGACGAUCUUUAUCAUGAGGAGCUCAACGCGCCCAUACGGAGAAACAAAGAAGAGCCCAAGGCCCGGCCCUUGAGAGUAGGUGACACGGAGAAGCCAGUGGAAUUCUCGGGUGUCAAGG | -0.79
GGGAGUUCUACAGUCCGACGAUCACCAUGCAGGUGGGCAUCUUUGGGAAGUGGGGCAAGGGGGGGAUAGGGAGGGGGGUAACACUUUGGGAACAGGUGGUCCAAAGUCGUUUCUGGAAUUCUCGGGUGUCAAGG | 0.17
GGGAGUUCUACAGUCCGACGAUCGCAGGAAGUAAAAACACAUGGAAAUGCUUCGGAUAGUGGCAGGGGUGGGGGUUGCUAAGGAAAGGGUGGGAUGGGAGUGGGUAAAGAGUUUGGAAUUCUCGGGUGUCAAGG | 0.117
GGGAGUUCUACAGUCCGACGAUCUCUCUUAUGCUAUUGGAGUUUCUCAUCCAUUAUCUAUCUCCAUUUUCCAUUAUGGUACCUCUCAGAAGAGUGAGAGAGAGCUAUUAGAGAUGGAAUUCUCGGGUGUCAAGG | 0.611
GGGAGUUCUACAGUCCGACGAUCAGUUACGGUAGCAGUUCUCAGAGCAGCAGCUAUGGGCAGCCCCAGAGUGGGAGCUACAGCCAGCAGCCUAGCUAUGGUGGACAGCAGCAAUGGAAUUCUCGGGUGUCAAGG | -1.93
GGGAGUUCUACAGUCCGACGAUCCCUCAAGUCCUGUGCUACACAUCGUAUGUACCGAAUCGGGGAGGAGGGAGGGGAAAGUAUUAUGUUACGCCGUUCGGAUCUGCACUUCCAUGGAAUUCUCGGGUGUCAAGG | 0.078
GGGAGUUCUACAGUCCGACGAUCUAACUUUAGAGGAGGAUCUGAUGGAUAUGGCAGUGGACGUGGAUUUGGGGAUGGCUAUAAUGGGUAUGGAGGAGUACCUGGAGGUGGCAAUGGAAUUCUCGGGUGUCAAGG | -0.569
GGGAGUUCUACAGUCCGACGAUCUCCUGUGCUACACAUCGUAUGUACCGAAUCGGGGAAAAAGGGGAAAAAGGGGAAAAAGGAAAGUAUUAUGUUACGCCGUUCGGAUCUGCAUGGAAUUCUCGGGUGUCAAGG | 0.0427
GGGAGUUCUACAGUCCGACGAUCCUGUGCUACACAUCGUAUGUACCGAAUCGGGUUUUUUUGGUUUUUUUGGGGUUUUUUUGGGGAAAGUAUUAUGUUACGCCGUUCGGAUCUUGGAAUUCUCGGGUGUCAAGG | 1.4
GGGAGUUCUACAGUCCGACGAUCCUCAAGUCCUGUGCUACACAUCGUAUGUACCGAAUCGGGGCGGGGCGGGGCGGAAAGUAUUAUGUUACGCCGUUCGGAUCUGCACUUCCAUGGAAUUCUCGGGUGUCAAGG | -0.424

Block 4
Target: ABI1, truncated, D143A, DHFR fusion (Arabidopsis thaliana)
Technique: DHFR PCA, deep sequencing
Medium: yeast
Setting: methotrexate growth selection, single substitutions
Together with: (+)-ABA 0.0091 µM
Relative to: wild-type fitted maximum
Direction: higher = stronger binding
Parent: PYL1, truncated, DHFR fusion (Arabidopsis thaliana); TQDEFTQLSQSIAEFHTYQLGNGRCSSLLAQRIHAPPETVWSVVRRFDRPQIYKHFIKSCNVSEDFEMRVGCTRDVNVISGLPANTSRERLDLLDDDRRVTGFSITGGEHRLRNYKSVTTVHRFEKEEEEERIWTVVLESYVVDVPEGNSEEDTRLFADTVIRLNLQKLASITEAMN; partner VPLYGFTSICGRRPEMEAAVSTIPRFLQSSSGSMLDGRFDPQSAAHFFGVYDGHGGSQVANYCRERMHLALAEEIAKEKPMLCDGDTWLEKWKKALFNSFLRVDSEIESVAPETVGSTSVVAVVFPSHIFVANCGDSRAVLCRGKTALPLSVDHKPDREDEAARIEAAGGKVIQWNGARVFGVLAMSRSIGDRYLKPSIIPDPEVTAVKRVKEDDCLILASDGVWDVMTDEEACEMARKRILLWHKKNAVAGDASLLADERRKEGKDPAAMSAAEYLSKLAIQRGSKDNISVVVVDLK
Change | relative binding score
E128S | 35.3%
E130D | 44.7%
T86Q | 11.9%
G148T | 1.32%
V145M | 0.204%
E14R | 2.29%
T154E | -4.46%
Q10E | 45.9%
E125Q | 45.2%
P83S | 27.5%
D75F | 19.3%
F157S | 1.09%
P37F | -4.44%
S26P | 1.88%
E129R | 14%
G23H | 9.27%
C60I | -1.05%
V143A | 3.35%
T73S | 4.99%
F47W | 6.52%

Block 5
Target: CREBRF, bZIP domain (human)
Technique: DHFR protein complementation
Medium: yeast
Setting: single substitutions, most at no-binding floor
Relative to: wild-type JUN-FOS pair
Direction: higher = stronger binding
Parent: JUN, bZIP domain (human); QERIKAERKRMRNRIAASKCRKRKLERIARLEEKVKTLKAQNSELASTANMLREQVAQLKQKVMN; partner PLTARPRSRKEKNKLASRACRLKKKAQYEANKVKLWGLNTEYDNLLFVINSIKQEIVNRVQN
Change | binding fitness [natural log]
V35P | -1.54
L45S | -1.4
R53L | -1.48
K39D | -1.59
T37D | -1.32
V56M | -1.47
A49S | -1.49
L52Y | -1.53
E32R | -1.35
N42L | -1.45
K34N | -1.41
E54G | -1.39
L52F | -1.65
E44I | -1.23
A29E | -1.49
A40F | -1.49
K39C | -1.5
L38V | -1.41
A49H | -1.52
V35N | -1.46

Block 6
Target: CCNB3, cyclin fold, Cln2 fusion (human)
Technique: yeast growth competition, sequencing
Medium: yeast
Setting: weak parent motif
Relative to: not given
Direction: higher = stronger binding
Parent: SLBP docking peptide (human); ARYKRKLLINDFG
Change | normalised enrichment score
ARYKDKLLINDFG [R5D] | 0.255
FRYKRKLLINDFG [A1F] | -0.0304
ARYKRKLLIIDFG [N10I] | 0.105
ACYKRKLLINDFG [R2C] | -0.0473
ARYKRKLLINGFG [D11G] | 0.259
ARYKRKLLINDGG [F12G] | 0.049
ARYKRKLLINDFS [G13S] | -0.346
ARTKRKLLINDFG [Y3T] | 0.113
ARYKRKLFINDFG [L8F] | 0.151
ARYTRKLLINDFG [K4T] | -0.27
ARYKRKLLINDLG [F12L] | 0.485
ARYQRKLLINDFG [K4Q] | 0.229
ARYGRKLLINDFG [K4G] | 0.263
ARYKRKLLIPDFG [N10P] | 0.191
ARYKRKLLINIFG [D11I] | 0.0035
KRYKRKLLINDFG [A1K] | -0.39
ARYKRCLLINDFG [K6C] | 0.644
ARYKRKLLINDIG [F12I] | 0.053
ARYKRKLCINDFG [L8C] | -0.118
ARYKRSLLINDFG [K6S] | -0.323
ARYCRKLLINDFG [K4C] | -0.0165
AIYKRKLLINDFG [R2I] | 0.462
